Measured values collected from several papers.
Square brackets hold non-standard residues; d marks the D form. Ends that are not written are not given here.
MAPK8: MAPK8, pT183, pY185 (Homo sapiens, UniProt P45983)
UniProt P45983, sequence (whole entry, looked up): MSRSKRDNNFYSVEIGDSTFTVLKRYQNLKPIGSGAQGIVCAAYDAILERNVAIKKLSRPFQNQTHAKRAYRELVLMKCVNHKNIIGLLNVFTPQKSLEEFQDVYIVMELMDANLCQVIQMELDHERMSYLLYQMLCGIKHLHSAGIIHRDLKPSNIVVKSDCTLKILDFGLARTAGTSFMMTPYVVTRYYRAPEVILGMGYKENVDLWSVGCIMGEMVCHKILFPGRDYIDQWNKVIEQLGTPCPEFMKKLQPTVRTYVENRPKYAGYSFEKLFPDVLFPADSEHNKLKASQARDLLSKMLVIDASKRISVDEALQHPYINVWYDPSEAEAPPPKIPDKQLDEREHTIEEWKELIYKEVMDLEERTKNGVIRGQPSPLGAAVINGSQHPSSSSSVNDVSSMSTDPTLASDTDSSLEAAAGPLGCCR
KDM5A: KDM5A 287-347 (Homo sapiens, UniProt P29375)
UniProt P29375, sequence (whole entry, looked up): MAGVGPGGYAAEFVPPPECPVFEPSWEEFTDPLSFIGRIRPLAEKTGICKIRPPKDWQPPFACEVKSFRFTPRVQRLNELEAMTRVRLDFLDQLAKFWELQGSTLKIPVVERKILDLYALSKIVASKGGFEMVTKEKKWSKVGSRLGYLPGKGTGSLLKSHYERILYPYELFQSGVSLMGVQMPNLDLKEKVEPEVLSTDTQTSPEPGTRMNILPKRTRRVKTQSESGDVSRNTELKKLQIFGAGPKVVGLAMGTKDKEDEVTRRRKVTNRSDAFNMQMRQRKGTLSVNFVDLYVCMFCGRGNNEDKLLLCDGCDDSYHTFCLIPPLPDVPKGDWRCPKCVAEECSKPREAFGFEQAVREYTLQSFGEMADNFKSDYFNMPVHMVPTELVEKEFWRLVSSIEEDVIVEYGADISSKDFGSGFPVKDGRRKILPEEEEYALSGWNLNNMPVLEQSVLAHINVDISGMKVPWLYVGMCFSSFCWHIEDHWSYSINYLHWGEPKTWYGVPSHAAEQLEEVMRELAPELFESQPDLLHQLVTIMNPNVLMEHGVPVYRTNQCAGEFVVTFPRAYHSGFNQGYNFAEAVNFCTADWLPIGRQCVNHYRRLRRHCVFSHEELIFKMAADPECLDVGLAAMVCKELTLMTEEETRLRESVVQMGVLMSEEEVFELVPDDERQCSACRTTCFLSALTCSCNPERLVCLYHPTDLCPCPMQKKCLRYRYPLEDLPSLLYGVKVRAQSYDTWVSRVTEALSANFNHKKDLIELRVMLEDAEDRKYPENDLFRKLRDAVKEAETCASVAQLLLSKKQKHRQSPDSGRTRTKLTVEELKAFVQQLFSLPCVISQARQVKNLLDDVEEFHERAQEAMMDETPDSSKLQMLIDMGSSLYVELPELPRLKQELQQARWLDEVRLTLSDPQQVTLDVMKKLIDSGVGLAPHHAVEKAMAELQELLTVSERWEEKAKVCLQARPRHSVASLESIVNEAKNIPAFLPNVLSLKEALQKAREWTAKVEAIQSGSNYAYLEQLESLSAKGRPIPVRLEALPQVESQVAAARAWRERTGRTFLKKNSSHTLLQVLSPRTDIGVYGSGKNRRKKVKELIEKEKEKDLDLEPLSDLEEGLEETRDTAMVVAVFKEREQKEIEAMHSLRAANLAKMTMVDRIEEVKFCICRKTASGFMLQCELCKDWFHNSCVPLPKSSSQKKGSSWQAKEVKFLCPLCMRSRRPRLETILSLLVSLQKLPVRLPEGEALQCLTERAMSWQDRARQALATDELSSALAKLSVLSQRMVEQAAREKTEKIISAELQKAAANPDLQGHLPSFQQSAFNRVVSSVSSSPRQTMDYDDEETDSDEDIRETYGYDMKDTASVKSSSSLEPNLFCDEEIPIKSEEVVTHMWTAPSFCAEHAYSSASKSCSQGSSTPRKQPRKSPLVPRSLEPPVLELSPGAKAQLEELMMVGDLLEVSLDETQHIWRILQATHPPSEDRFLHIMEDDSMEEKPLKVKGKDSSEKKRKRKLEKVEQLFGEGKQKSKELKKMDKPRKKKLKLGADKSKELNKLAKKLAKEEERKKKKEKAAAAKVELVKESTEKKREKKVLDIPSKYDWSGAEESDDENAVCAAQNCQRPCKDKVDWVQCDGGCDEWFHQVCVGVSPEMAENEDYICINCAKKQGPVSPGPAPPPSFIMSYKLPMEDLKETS
B1: JUN (Homo sapiens, UniProt P05412); sequence looked up; chain MTAKMETTFYDDALNASFLPSESGPYGYSNPKILKQSMTLNLADPVGSLKPHLRAKNSDLLTSPDVGLLKLASPELERLIIQSSNGHITTTPTPTQFLCPKNVTDEQEGFAEGFVRALAELHSQNTLPSVTSAAQPVNGAGMVAPAVASVAGGSGSGGFSASLHSEPPVYANLSNFNPGALSSGGGAPSYGAAGLAFPAQPQQQQQPPHHLPQQMPVQHPRLQALKEEPQTVPEMPGETPPLSPIDMESQERIKAERKRMRNRIAASKCRKRKLERIARLEEKVKTLKAQNSELASTANMLREQVAQLKQKVMNHVNSGCQLMLTQQLQTF
B2: Prkcd (Rattus norvegicus, UniProt P09215); sequence looked up; chain MAPFLRISFNSYELGSLQAEDDASQPFCAVKMKEALTTDRGKTLVQKKPTMYPEWKSTFDAHIYEGRVIQIVLMRAAEDPMSEVTVGVSVLAERCKKNNGKAEFWLDLQPQAKVLMCVQYFLEDGDCKQSMRSEEEAMFPTMNRRGAIKQAKIHYIKNHEFIATFFGQPTFCSVCKEFVWGLNKQGYKCRQCNAAIHKKCIDKIIGRCTGTATNSRDTIFQKERFNIDMPHRFKVYNYMSPTFCDHCGTLLWGLVKQGLKCEDCGMNVHHKCREKVANLCGINQKLLAEALNQVTQKASRKPETPETVGIYQGFEKKTAVSGNDIPDNNGTYGKIWEGSNRCRLENFTFQKVLGKGSFGKVLLAELKGKERYFAIKYLKKDVVLIDDDVECTMVEKRVLALAWENPFLTHLICTFQTKDHLFFVMEFLNGGDLMFHIQDKGRFELYRATFYAAEIICGLQFLHGKGIIYRDLKLDNVMLDKDGHIKIADFGMCKENIFGENRASTFCGTPDYIAPEILQGLKYSFSVDWWSFGVLLYEMLIGQSPFHGDDEDELFESIRVDTPHYPRWITKESKDIMEKLFERDPAKRLGVTGNIRLHPFFKTINWNLLEKRKVEPPFKPKVKSPSDYSNFDPEFLNEKPQLSFSDKNLIDSMDQTAFKGFSFVNPKYEQFLE
B3: Ric8b 1-483 N123A (Mus musculus, UniProt Q80XE1); chain MDEERALYIVRAGEAGAIERVLRDYSDKHRATFKFESADEDKRKKLCEGIFKVLVKEVPTTCQVSCLEVLRILSRDKKILVPVTTKENMQILLRLAKLHESDDSLEKVSEFPVIVESLKCLCAIVFNSQMAQQLSLELNLAAKLCNLLRKCKDRKFINDIKCFDLRLLFVLSLLHTDIRSQLRYELQGLPLLTQILESAFSIKWTDEYESAIDHNGPPLSPQETDCAIEALKALFNVTVDSWKVHKESDSHQFRVMAAVLRHCLLIVGPTEDKTEELHSNAVNLLSNVPVSCLDVLICPLTHEETAQEAATLDELPSDKTTEKDTALKNSTMVYNGMNMEAIHVLLNFMEKRIDKGSSYREGLTPVLSLLTECSRAHRNIRKFLKDQVLPPLRDVTNRPEVGSTVRNKLVRLMTHVDLGVKQIAAEFLFVLCKERVDSLLKYTGYGNAAGLLAARGLLAGGRGDNWYSEDEDTDTEEYKNAKP
B4: rpoD 530-613 (Escherichia coli, UniProt P00579); sequence looked up; chain LPLDSATTESLRAATHDVLAGLTAREAKVLRMRFGIDMNTDYTLEEVGKQFDVTRERIRQIEAKALRKLRHPSRSEVLRSFLDD
B5: SNRPB2 (Homo sapiens, UniProt P08579); chain MDIRPNHTIYINNMNDKIKKEELKRSLYALFSQFGHVVDIVALKTMKMRGQAFVIFKELGSSTNALRQLQGFPFYGKPMRIQYAKTDSDIISKMRGTFADKEKKKEKKKAKTVEQTATTTNKKPGQGTPNSANTQGNSTPNPQVPDYPPNYILFLNNLPEETNEMMLSMLFNQFPGFKEVRLVPGRHDIAFVEFENDGQAGAARDALQGFKITPSHAMKITYAKK
B6: PPP1CB (Homo sapiens, UniProt P62140); sequence looked up; chain MADGELNVDSLITRLLEVRGCRPGKIVQMTEAEVRGLCIKSREIFLSQPILLELEAPLKICGDIHGQYTDLLRLFEYGGFPPEANYLFLGDYVDRGKQSLETICLLLAYKIKYPENFFLLRGNHECASINRIYGFYDECKRRFNIKLWKTFTDCFNCLPIAAIVDEKIFCCHGGLSPDLQSMEQIRRIMRPTDVPDTGLLCDLLWSDPDKDVQGWGENDRGVSFTFGADVVSKFLNRHDLDLICRAHQVVEDGYEFFAKRQLVTLFSAPNYCGEFDNAGGMMSVDETLMCSFQILKPSEKKAKYQYGGLNSGRPVTPPRTANPPKKR
B7: Scn2a 989-1133 (UniProt P04775); CK2-phosphorylated; sequence looked up; chain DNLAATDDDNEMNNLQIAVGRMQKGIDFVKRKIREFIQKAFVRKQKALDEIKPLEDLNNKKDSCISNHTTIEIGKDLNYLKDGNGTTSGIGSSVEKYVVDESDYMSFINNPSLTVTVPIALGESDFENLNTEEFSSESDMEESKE
B8: EnvC 278-419 (Escherichia coli, UniProt P37690); chain STESEKSLMSRTGGLGAPRGQAFWPVRGPTLHRYGEQLQGELRWKGMVIGASEGTEVKAIADGRVILADWLQGYGLVVVVEHGKGDMSLYGYNQSALVSVGSQVRAGQPIALVGSSGGQGRPSLYFEIRRQGQAVNPQPWLGR
B9: XCL1 mature protein V21C/V59C/E4A (UniProt P47992); chain VGSAVSDKRTCVSLTTQRLPCSRIKTYTITEGSLRAVIFITKRGLKVCADPQATWVRDCVRSMDRKSNTRNNMIQTKPTGTQQSTNTAVTLTG
B10: IGFL3 24-125 (Homo sapiens, UniProt Q6UXB1); chain GTTDAPVGSGLWLCQPTPRCGNKIYNPSEQCCYDDAILSLKETRRCGSTCTFWPCFELCCPESFGPQQKFLVKLRVLGMKSQCHLSPISRSCTRNRRHVLYP
B11: NECTIN2 32-360 (Homo sapiens, UniProt Q92692); chain QDVRVQVLPEVRGQLGGTVELPCHLLPPVPGLYISLVTWQRPDAPANHQNVAAFHPKMGPSFPSPKPGSERLSFVSAKQSTGQDTEAELQDATLALHGLTVEDEGNYTCEFATFPKGSVRGMTWLRVIAKPKNQAEAQKVTFSQDPTTVALCISKEGRPPARISWLSSLDWEAKETQVSGTLAGTVTVTSRFTLVPSGRADGVTVTCKVEHESFEEPALIPVTLSVRYPPEVSISGYDDNWYLGRTDATLSCDVRSNPEPTGYDWSTTSGTFPTSAVAQGSQLVIHAVDSLFNTTFVCTVTNAVGMGRAEQVIFVRETPNTAGAGATGG
UniProt P0A9E2, sequence (whole entry, unmodified, looked up): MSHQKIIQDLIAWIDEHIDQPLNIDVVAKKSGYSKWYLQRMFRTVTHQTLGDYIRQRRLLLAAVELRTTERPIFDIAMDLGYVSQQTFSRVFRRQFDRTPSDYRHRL
UniProt P43254, sequence (whole entry, looked up): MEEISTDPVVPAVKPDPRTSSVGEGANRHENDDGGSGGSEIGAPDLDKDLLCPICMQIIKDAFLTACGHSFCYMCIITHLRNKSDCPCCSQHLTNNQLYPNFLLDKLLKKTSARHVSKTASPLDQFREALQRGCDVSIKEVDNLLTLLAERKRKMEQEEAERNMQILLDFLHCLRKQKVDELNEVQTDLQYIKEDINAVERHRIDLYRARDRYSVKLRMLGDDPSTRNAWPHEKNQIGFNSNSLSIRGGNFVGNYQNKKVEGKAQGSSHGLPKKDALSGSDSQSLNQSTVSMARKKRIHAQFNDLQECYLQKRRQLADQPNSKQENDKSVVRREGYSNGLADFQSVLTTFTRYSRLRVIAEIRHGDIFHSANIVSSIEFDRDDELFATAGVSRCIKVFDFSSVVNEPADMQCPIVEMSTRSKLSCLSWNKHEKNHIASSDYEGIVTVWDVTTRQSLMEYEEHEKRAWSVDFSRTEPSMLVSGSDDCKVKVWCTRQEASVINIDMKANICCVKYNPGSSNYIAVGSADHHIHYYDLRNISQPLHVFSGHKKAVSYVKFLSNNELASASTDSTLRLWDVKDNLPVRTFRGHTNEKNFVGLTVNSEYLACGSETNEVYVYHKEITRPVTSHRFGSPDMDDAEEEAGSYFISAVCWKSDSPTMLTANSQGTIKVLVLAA
UniProt P08684, sequence (whole entry, unmodified, looked up): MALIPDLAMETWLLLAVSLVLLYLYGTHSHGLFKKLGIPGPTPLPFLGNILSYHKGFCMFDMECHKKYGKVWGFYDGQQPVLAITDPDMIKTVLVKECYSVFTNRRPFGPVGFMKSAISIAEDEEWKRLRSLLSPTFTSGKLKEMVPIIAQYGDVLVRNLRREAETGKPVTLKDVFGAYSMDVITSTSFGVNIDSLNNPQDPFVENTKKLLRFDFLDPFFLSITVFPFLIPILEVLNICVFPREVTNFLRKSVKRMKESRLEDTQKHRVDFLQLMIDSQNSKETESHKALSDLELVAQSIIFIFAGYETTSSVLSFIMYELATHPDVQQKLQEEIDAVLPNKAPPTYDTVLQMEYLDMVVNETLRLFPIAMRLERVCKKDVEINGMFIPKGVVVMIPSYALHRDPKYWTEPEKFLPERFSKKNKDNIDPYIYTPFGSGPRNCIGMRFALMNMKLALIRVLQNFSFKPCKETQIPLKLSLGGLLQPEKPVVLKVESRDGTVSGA
UniProt Q9NPB9, sequence (whole entry, looked up): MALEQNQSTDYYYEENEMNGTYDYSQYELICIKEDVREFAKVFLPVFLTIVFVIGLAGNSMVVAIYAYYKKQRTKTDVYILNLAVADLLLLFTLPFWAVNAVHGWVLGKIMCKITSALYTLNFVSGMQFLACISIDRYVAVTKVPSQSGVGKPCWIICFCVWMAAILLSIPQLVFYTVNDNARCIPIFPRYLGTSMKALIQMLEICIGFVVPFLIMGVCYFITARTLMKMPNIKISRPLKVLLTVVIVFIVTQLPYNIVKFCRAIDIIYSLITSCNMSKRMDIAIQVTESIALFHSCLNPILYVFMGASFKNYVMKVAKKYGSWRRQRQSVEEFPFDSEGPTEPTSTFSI
UniProt O60829, sequence (whole entry, looked up): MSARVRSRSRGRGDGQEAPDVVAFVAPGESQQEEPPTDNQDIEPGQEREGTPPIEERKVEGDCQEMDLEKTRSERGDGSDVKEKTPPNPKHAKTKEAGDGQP
UniProt Q9UBS4, sequence (whole entry, looked up): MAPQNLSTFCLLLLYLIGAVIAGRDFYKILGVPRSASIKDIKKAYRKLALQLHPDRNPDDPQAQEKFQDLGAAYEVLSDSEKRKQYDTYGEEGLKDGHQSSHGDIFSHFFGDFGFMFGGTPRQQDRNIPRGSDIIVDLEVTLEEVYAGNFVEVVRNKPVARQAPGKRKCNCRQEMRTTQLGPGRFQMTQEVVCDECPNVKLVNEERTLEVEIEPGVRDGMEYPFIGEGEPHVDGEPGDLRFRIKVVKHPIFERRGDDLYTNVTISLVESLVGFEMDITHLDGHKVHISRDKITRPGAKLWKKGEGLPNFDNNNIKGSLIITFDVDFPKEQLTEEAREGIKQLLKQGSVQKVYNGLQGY
UniProt Q9H665, sequence (whole entry, looked up): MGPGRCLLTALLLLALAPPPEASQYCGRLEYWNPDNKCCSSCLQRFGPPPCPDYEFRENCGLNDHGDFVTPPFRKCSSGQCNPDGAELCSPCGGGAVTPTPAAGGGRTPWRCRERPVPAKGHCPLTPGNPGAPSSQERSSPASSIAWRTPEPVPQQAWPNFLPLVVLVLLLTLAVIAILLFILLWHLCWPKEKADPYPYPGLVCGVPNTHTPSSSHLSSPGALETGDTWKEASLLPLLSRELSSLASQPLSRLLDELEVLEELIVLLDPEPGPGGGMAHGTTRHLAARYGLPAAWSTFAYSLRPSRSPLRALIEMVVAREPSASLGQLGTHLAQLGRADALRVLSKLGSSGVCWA
UniProt P09038, sequence (whole entry, looked up): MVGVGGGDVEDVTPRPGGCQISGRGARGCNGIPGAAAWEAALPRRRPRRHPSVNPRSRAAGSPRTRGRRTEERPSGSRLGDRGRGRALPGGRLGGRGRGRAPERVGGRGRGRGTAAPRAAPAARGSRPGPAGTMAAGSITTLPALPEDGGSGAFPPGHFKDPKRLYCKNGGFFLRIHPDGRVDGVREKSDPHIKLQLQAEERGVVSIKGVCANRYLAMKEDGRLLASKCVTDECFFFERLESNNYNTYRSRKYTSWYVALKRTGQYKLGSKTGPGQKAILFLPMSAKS
UniProt Q99731, sequence (whole entry, looked up): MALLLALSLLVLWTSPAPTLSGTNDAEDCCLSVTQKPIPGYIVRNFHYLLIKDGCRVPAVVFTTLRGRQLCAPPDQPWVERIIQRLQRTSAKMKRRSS

B1 (JUN) — quantum yield ratio (PAGE4, Alexa Fluor 555 at C63 (Homo sapiens, UniProt O60829); ensemble fluorescence; relative to: before adding c-Jun, higher = brighter after c-Jun): 1.24
B2 (Prkcd) — co-precipitated PKCδ (Slc1a5 (Rattus norvegicus, UniProt D3ZJ25); co-IP; primary rat astrocytes; 4 h, added: Mn(II) 500 µM; relative to: control, higher = more PKCδ): 5.34 fold
COP1 (Arabidopsis thaliana, UniProt P43254) — beta-galactosidase signal (CRY2 (Arabidopsis thaliana, UniProt Q96524); yeast three-hybrid; blue light, added: SPA1; relative to: dark, higher = stronger interaction): > 5 fold
EPB41 fragment (Homo sapiens) — fold increase of Kd (SLC9A1 residues 506-575 (Rattus norvegicus); resonant mirror detection; pH 8.5): > 20 times
B3 (Ric8b 1-483 N123A) — sensor folding (GNAL 1-381 (Homo sapiens, UniProt P38405); luminescence; RIC-8B knockout HEK293T; relative to: wild-type Ric-8B, higher = more folding): 8%
YAGRRKERPTSLNVFP (MAPK8IP3 D-site peptide (Homo sapiens)) — IC50 (MAPK8; kinase activity, inhibitor, competitive kinase inhibition assay; peptide; added: ATP 1 mM): 360 nM
CCL19 (UniProt Q99731) — pEC50 (ACKR4 (Homo sapiens, UniProt Q9NPB9); β-arrestin2 recruitment, agonist, EFC; CHO-CCX-CKR; vehicle): 8.6
WTGWCLNPEESTWGFCTGSF (Fc fusion of EC-1 peptide human IgG Fc (Homo sapiens)) — ADCC (ERBB2 (Homo sapiens, UniProt P04626); LDH release cell death; Fc fusion, parental SKBR-3; 1 µM, added: PBMC effector:target ratios; higher = more cell death): 70%
YAKQVRKKEHKLKITP (AFAP1L2 D-site peptide (Homo sapiens)) — IC50 (MAPK8; kinase activity, inhibitor, competitive kinase inhibition assay; peptide; added: ATP 1 mM): > 100000 nM
B4 (rpoD 530-613) — reporter induction ratio (soxS F74A/D75A/M78A/D79A/Q85A (Escherichia coli, UniProt P0A9E2); β-galactosidase, two-hybrid; yeast; relative to: non-inducing glucose medium, higher = more interaction): 14
SFRNGVGTGMKKTSFQRAKS (Neuropeptide S mature 1-20 (Homo sapiens, UniProt P0C0P6); sequence looked up) — EC50 (NPSR1 D105A (Homo sapiens, UniProt Q6W5P4); intracellular Ca2+ mobilisation, agonist, FLIPR; peptide; D105A mutant): 583 nM
H[dS]QGTFTSDYSKYLDSRRAQ[dC]FVQWLMCTKRNRNNIA-NH2 (oxyntomodulin analog D21C/N28C, D-Ser2, D-Cys21, C-terminal amide; cysteine pairing not given here; D-Ser2, D-Cys21, C-terminal amide) — EC50 (GCGR (Homo sapiens, UniProt P47871); CRE luciferase reporter, agonist; peptide, HEK293): > 1000 nM
B5 (SNRPB2) — ΔH (SNRPA1 1-180 (Homo sapiens, UniProt P09661); ITC; KCl 250 mM): -73.2 kcal/mol
B6 (PPP1CB) — koff (SHOC2 (Homo sapiens, UniProt Q9UQ13); BLI; pH 7.5, 30 °C): 0.0075 s⁻¹
B7 (Scn2a 989-1133) — koff (ANK2 1-957 (Homo sapiens, UniProt Q01484-2); SPR; pH 7.4, 25 °C, NaCl 150 mM): 0.0023 s⁻¹
B8 (EnvC 278-419) — AmiB activation (AmiB (Escherichia coli); dye release from labelled sacculi, activator; 1 µM; relative to: wild-type, higher = more activation): 100%
B9 — potency decrease (XCR1 (Homo sapiens, UniProt P46094); calcium flux; HEK293; relative to: XCL1 CC3, higher = less potent): 93 fold
B10 (IGFL3 24-125) — koff (IGFLR1 23-159 (Homo sapiens, UniProt Q9H665); SPR; pH 7.4, 25 °C, NaCl 0.15 M): 9.31e-05 s⁻¹
FKBP1A (Homo sapiens, UniProt P62942) — closed time (RYR1 (Oryctolagus cuniculus, UniProt P11716); planar lipid bilayer recording; planar lipid bilayers; single channel, nonphosphorylated): 36.7 ms
A2M methylamine-activated (Homo sapiens, UniProt P01023) — mRNA level (Lrp1 (Rattus norvegicus, UniProt G3V928); MCP-1 mRNA, qPCR; rat Schwann cells; 50 nM, 6 hr; higher = more mRNA): > 10 fold
Dnmt3l fragment F297D (Mus musculus) — methylation activity reduction (Dnmt3a fragment (Mus musculus); DNA methylation activity; relative to: wild-type complex, higher = greater loss of activity): 75%
DNAJB11 (Homo sapiens, UniProt Q9UBS4) — ATPase stimulation (HSPA5 (Homo sapiens, UniProt P11021); BiP ATPase activity, activator; relative to: intrinsic activity, higher = more stimulation): > 20 fold
cyp102A1 flavin reductase domain (Bacillus megaterium) — slow phase rate constant (CYP3A4 del3-12 (Homo sapiens, UniProt P08684); BMR-dependent reduction; nanodiscs; added: 1-PB): 0.0022 s⁻¹
FGF2 (Homo sapiens, UniProt P09038) — cell proliferation (FGFR3 isoform IIIc (unknown, UniProt Q61851); cell proliferation, MTT; BaF3-FGFR3c; 20 nM, 48 h, added: chondroitin sulfate E 4.9 µg/mL; relative to: FGF 1 with heparin, higher = more proliferation): 34%
ARVKWTARKS (Histone H3.1 2-11 T3V/Q5W (Homo sapiens, UniProt P68431); sequence looked up) — Ki (KDM5A; competition with labeled peptide, fluorescence polarisation; peptide; added: H3 peptide): 15600 nM
APP Aβ1-40 A2V (Homo sapiens) — aggregation time constant (APP Aβ1-40 (Homo sapiens); laser light scattering; equimolar mixture): 8.3 h
CYB5A holo (Homo sapiens, UniProt P00167) — catalytic efficiency ratio (CYP3A4 N-terminally truncated K421A (Homo sapiens, UniProt P08684); testosterone 6β-hydroxylation; added: CPR; relative to: without b5, higher = greater b5 stimulation): 1.7
THBS1 fragment (Homo sapiens) — molecule per partner (pad-2 40-424 R298K/R299K (Caenorhabditis elegans, UniProt Q8WR51); crystal structure): 1
CACNA1C distal C-terminal domain (x) — activation curve rightward shift (CACNA1C 1-1820 (Oryctolagus cuniculus, UniProt P15381); whole-cell patch clamp; AD293; in cells): 10 mV
ARTKYTARKS (Histone H3.1 2-11 Q5Y (Homo sapiens, UniProt P68431); sequence looked up) — Ki (KDM5A; competition with labeled peptide, fluorescence polarisation; peptide; added: H3 peptide): 650 nM
B11 (NECTIN2 32-360) — molecule per partner (PVRIG extracellular domain 41-171 (Homo sapiens, UniProt Q6DKI7); SEC-MALS): 1

For quick reference, copied from above:
CCL19 (UniProt Q99731) — pEC50 (ACKR4 (Homo sapiens, UniProt Q9NPB9); β-arrestin2 recruitment, agonist, EFC; CHO-CCX-CKR; vehicle): 8.6
WTGWCLNPEESTWGFCTGSF (Fc fusion of EC-1 peptide human IgG Fc (Homo sapiens)) — ADCC (ERBB2 (Homo sapiens, UniProt P04626); LDH release cell death; Fc fusion, parental SKBR-3; 1 µM, added: PBMC effector:target ratios; higher = more cell death): 70%
YAKQVRKKEHKLKITP (AFAP1L2 D-site peptide (Homo sapiens)) — IC50 (MAPK8; kinase activity, inhibitor, competitive kinase inhibition assay; peptide; added: ATP 1 mM): > 100000 nM
